Results pooled from the literature.
A part holds a random share of what one study measured.

Sample 1
Target: Histone acetyltransferase KAT6A, winged helix 1, GST fusion (KAT6A, Homo sapiens, UniProt Q92794, residues 1-85)
Technique: protein binding microarray
Molecule type: double-stranded DNA, one strand shown
Medium: in vitro
Tested at: not given
Setting: 8-mer, flanks averaged, mean of 2 arrays, mostly near background
Baseline: not given
Reading: higher = stronger binding
Residues (chain): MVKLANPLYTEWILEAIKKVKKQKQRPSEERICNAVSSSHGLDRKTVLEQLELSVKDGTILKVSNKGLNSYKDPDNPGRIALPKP
With `AAGGGCCG` the E-score was 0.168.
`GACACCCC` gave an E-score of 0.0504.
With `GGTTGCGA` the E-score was -0.0253.
The E-score of `AATGTCCG` is reported as 0.246.
`AAAGGTAC` has an E-score of -0.152.
For `GGGGACGA`, the E-score was 0.114.
`AACTAAGC` gave an E-score of -0.0183.
`CGCCCATC` has an E-score of 0.069.
The E-score of `CTACCTAA` is reported as 0.0291.
The E-score of `AATAATGC` is reported as -0.0572.
`GGGTTTTA` has an E-score of 0.134.
`CCGTACCC` gave an E-score of 0.342.
For `CTCCCAAG`, the E-score was -0.314.
For `ATATAGCA`, the E-score was -0.144.
With `CAAGCCGC` the E-score was 0.395.
`GCCTAAAC` gave an E-score of -0.109.
The E-score of `CAATGTGC` is reported as 0.027.
`CTTGGCAC` has an E-score of -0.221.
`CCAAGTGC` has an E-score of -0.0332.
With `CAGTCGCA` the E-score was 0.106.
With `GAGGTAAC` the E-score was 0.0382.
The E-score of `CATGAATG` is reported as -0.0791.

Sample 2
Target: Interferon regulatory factor 3, full length, phosphomimetic (IRF3, Homo sapiens, UniProt Q14653, residues 1-427, S386D/S396D/S398D/S402D/T404D/S405D)
Technique: protein-binding microarray
Molecule type: double-stranded DNA, one strand shown
Medium: in vitro
Tested at: 2540 nM top
Setting: 60-bp whole probe
Together with: salmon DNA 0.4 mg/ml
Baseline: random background probes
Reading: higher = stronger binding
Constant ends, left off below: GCCTAGCAC … GTCTTGATTCGCTTGACGCTGCTG
Target sequence (chain): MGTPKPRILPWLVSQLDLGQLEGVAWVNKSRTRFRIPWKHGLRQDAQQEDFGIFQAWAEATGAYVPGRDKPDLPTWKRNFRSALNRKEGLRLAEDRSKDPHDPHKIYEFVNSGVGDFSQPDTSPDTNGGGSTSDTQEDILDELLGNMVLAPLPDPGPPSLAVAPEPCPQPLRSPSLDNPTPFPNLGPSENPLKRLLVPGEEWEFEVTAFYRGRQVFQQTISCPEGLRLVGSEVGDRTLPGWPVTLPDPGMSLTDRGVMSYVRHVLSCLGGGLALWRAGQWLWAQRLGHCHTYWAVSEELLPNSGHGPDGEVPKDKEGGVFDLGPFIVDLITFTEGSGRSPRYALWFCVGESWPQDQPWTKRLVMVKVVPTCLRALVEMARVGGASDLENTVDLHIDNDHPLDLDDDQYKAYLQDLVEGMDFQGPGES
Under “fitted relative affinity”, `TTCGGTTTCCTTTCCCTTTAGTGCTAG` is recorded as 10.8 z-score.
Under “fitted relative affinity”, `TTAGATTTCGGGACTGGATCAGTGCTA` is recorded as 1.43 z-score.
Under “fitted relative affinity”, `TCAAATTTACTTTCTACACTGTGCTAG` is recorded as 1.88 z-score.
`TTAGGTTGCCTTATCCTTTAGTGCTAG` — result for “fitted relative affinity”: 4.4 z-score.
Under “fitted relative affinity”, `TTAGATATCTGTCTCGATTAGTGCTAG` is recorded as 0.622 z-score.
`CACGAACTGAGTTTCGAGACGTGCTAG` — result for “fitted relative affinity”: 1.29 z-score.
Under “fitted relative affinity”, `TTAGGAGTGGGGTTTCGGTTAGTGCTA` is recorded as 2.56 z-score.
`TTAGCTATCGACACTGGGTTAGTGCTA` — result for “fitted relative affinity”: -0.524 z-score.
`TAAGGTTCCGGTTTCGGTTAGTGCTAG`: “fitted relative affinity” 8.07 z-score.
`GACGATTTCGGGATTGGAGACGTGCTA`: “fitted relative affinity” 1.98 z-score.
`TCAAATCTCTCTTCACAACTGTGCTAG` — result for “fitted relative affinity”: 0.659 z-score.
For `TTAGAACTGGGGACTGGATTGGTGCTA`, “fitted relative affinity” read -0.809 z-score.
`GACGATATCGGGTAGCGAGACGTGCTA`: “fitted relative affinity” 0.058 z-score.
Under “fitted relative affinity”, `GATGGTTTCGACACTGGGGACGTGCTA` is recorded as 2.63 z-score.
For `AGGTTGATGGCTCTCTGGACGTGCTAG`, “fitted relative affinity” read -0.834 z-score.
`TTAGGTTTCTTTTTCCTTTAGTGCTAG` — result for “fitted relative affinity”: 5.88 z-score.
Under “fitted relative affinity”, `TTAGGTTTCGACTATCGTTTAGTGCTA` is recorded as 2.42 z-score.
`GACGGTTTCCTTTCCCTGAGGTGCTAG` — result for “fitted relative affinity”: 9.25 z-score.
`TTAGGTATCCGTTTCCTTTAGTGCTAG`: “fitted relative affinity” 7.11 z-score.

Sample 3
Target: RING finger protein unkempt homolog, zinc fingers 1-6, GST-SBP tag (UNK, Homo sapiens, UniProt Q9C0B0, residues 30-357)
Technique: RNA Bind-n-Seq
Molecule type: RNA
Medium: in vitro
Tested at: not given
Setting: RNA with constant flanks, human-mouse chimeric sites, ends assumed
Baseline: input RNA pool
Reading: higher = stronger binding
Constant ends, left off below: GGGAGUUCUACAGUCCGACGAUC … CAACAGAGGAUUGAGCAUCA
Target sequence (chain): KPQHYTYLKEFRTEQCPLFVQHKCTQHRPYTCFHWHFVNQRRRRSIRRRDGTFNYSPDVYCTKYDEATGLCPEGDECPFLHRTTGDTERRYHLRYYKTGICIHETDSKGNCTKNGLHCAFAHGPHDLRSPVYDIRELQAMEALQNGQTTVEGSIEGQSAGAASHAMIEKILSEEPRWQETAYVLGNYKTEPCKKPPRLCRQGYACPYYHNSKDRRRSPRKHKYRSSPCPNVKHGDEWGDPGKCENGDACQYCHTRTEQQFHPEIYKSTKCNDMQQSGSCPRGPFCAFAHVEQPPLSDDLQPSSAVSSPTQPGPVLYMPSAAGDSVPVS
With `GUUCGGCUCUGGGAUCAUGCCACAAUGACAGAAGUGAAAUCUCUGAAUUUUAAUAUGUCUGUUAGUAGCAUGGAGUAUAUUCCUGAGGGAGAGAUUUUGGUUAUUACUUAUGGACGAUCU` the bound/input enrichment was 0.405 ratio.
For `CUGAGGAAUACCACUGAGAGACCUUAAAAGAAUCAUUUGAGGGCUCUGUUCGUGCAAAGGAUAGUUAUGAUCGGGAAACUGGUUCUUCCAAAGGGUUUGGUUUUGUAGACUUUAAUAGUG`, the bound/input enrichment was 0.885 ratio.
`GGCUGCUGGUGACUGUCCUGGAGUGGCUGGAGUUCCCGCCGGAGCGCGGCCAGACUAAUUUUAGAAAAUGCCAAGUAGGAAAUUUGCUGAGGGUGAAGUGGUAAGAGGCCGAUGGCCUGG` has a bound/input enrichment of 4.62 ratio.
`AACAGAUUGUCUUUAAGCAUUCCAAGCGAGAAUGCUGGGGUGAUCAUUGUUGCCCAUGUGCCUUCUGACUGAGCUUUUAAUUAAUUGCAUGUUACAUCUUUCCUUCAUUGCAUAUUUGUU` has a bound/input enrichment of 0.251 ratio.
For `AACUUUGUGCAUCGGUUUCCCUUUGUAGCUGUUUCAAUUGGCUUCCUUGUGAAUAAAGAGAUGGAGUUUGGAAUUGUGUACAGUUGUGUGGAAGAUAAGAUGUACACCGGCAGGAAAGGG`, the bound/input enrichment was 0.403 ratio.
`AAAGAACUACUGAGGCAAGGCAGCAAAUUUAGGAGAGACAUUUCAACAAUAUUGAUAGAGUUAGGAUUCCAAAUUAAAAAAAAAACUAAAAGAUUGUACAUCAACAAAGCCAAUGUGUGG` has a bound/input enrichment of 11.1 ratio.
With `AAAGAACCUCUCUCUGAUGAAGAUGAGGAAGACAAUGAUGAUGUUGAACCCAUUUCUGAAUUUAGAUUUGUGCCCAGUGAUAAGUCAGCAUUGGAGGCAAUGUUCACAGCAAUGUGUGAG` the bound/input enrichment was 0.468 ratio.
With `AGGAGGAGGUUAAAGGGUGAGAGUGGGGUGGAAGACUGUGUCAUGGCCCUAGAAACCCUGUUCAGUGUCCUGCUUUCUCUGUGCAGACUGAUGGCCCCUUACACGCCCUUUCUGACUGAG` the bound/input enrichment was 0.0503 ratio.

Sample 4
Target: RNA binding protein fox-1 homolog 2, RRM domain, GST-SBP tag (RBFOX2, Homo sapiens, UniProt O43251-10, residues 100-194)
Technique: RNA Bind-n-Seq
Molecule type: RNA
Medium: in vitro
Tested at: 365 nM
Setting: natural RNA segment, single round, ends assumed
Baseline: no-protein control
Reading: higher = stronger binding
Constant ends, left off below: GGGAGUUCUACAGUCCGACGAUC … UGGAAUUCUCGGGUGCCAA
Target sequence (chain): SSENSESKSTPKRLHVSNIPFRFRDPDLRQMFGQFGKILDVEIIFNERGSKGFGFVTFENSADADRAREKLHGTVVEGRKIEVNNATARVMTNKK
For `GAAAAUUGUUUAGUGAUAUUACAUUUAUUUAUCCAGAAAACUGUGAUUUCAGGAGAACCUAACAUGCUGGUGAAUAUUUUCAACUUUUUCCCUCACUAAUUGGUACUUUU`, “RBNS enrichment (R)” read 0.585.
`UUCUCUUCUACAAAGACCCCAGCAGGAGUGGGAGGGUCUGCAAUGGCAUCGCCCUGUCCUGCCUUGGCCAGAAGCCUGGAGCUUUGGUUUGAGGAGGUAGAGAUAUGUGU` — result for “RBNS enrichment (R)”: 0.282.
`UGCUGCGAUGGCCUCAAGGCCUCUCCAGUCCCCUGCUGCACCAUGCCACUCAGAGCCCCUGAGUGAGCCCCCUGGAAUUGUCUGCACCCCCCAAGCCCCAACAGGAAGAA`: “RBNS enrichment (R)” 0.723.
For `UCGUCAUUUCUGUGUCCUCAAUUUUAUCUGAAAGAUUAAAACAAAAUAUAUUAUGUCACUAUUCAGUUCAUGGAGGUUUGUGCUUUUUCAUAUUUUGUGAUAUAUAAGUA`, “RBNS enrichment (R)” read 0.927.
For `CCAUGUGGUCACAGCCUGCCAGCAGCAAGACACCUGGGUCCACCACACCUCAGUGGAAGUAGCAGAAUGCCUCCCUGACCCGGGGCUCUUAGGGACUCUUGCUGCUAUGC`, “RBNS enrichment (R)” read 0.472.
`CAAAUUGACGUGGAUUCAUGCCACAUGGAAAUCUUUAAUUUAUUUGUUGAGGUACCAUAUAGCCAGGGUGCUAGGUGAUGAGUGGUGUUAGCAUGUGCAAUAGGAACUAC` — result for “RBNS enrichment (R)”: 5.35.
`GGGCUUUGCGCUUGUAAAUACUGAUAGCACUGGCUUCCUCCAAAGUCCCAACGUUCUAGCACCCCCCUCUUCUCCUUUCUCUGUCCCCCAUUUUCCAGGGGGUUUAUGGU` — result for “RBNS enrichment (R)”: 0.312.
For `GGUCUGGUCCUGUUUCUGCAGACUGCUUGGCUCAGGGCUUCCUGAGAGACUUGAGAGGAACUGUCCCUCCUCCCUCAUGCUUCUCCUCAUCCCUUCAAGCUGGUUGAAGA`, “RBNS enrichment (R)” read 0.353.

For quick reference, copied from above (sample 3):
`AAAGAACUACUGAGGCAAGGCAGCAAAUUUAGGAGAGACAUUUCAACAAUAUUGAUAGAGUUAGGAUUCCAAAUUAAAAAAAAAACUAAAAGAUUGUACAUCAACAAAGCCAAUGUGUGG` has a bound/input enrichment of 11.1 ratio.
With `AAAGAACCUCUCUCUGAUGAAGAUGAGGAAGACAAUGAUGAUGUUGAACCCAUUUCUGAAUUUAGAUUUGUGCCCAGUGAUAAGUCAGCAUUGGAGGCAAUGUUCACAGCAAUGUGUGAG` the bound/input enrichment was 0.468 ratio.
With `AGGAGGAGGUUAAAGGGUGAGAGUGGGGUGGAAGACUGUGUCAUGGCCCUAGAAACCCUGUUCAGUGUCCUGCUUUCUCUGUGCAGACUGAUGGCCCCUUACACGCCCUUUCUGACUGAG` the bound/input enrichment was 0.0503 ratio.
